Measured values from different studies.
Compare with care: the assays were run in different laboratories. Values joined by “and” are separate records of one study, mostly repeats; a detail may differ. ± gives the spread as reported.
GRM4: Metabotropic glutamate receptor 4 (GRM4, Homo sapiens, UniProt Q14833)
WEE1/CRBN: WEE1/CRBN (Homo sapiens, UniProt P30291+Q96SW2)
FPR1: fMet-Leu-Phe receptor (FPR1, Homo sapiens, UniProt P21462)
Lysophospholipase-like protein 1: Lysophospholipase-like protein 1 (Mus musculus, UniProt Q3UFF7)
E3 ubiquitin-protein ligase NEDD4: E3 ubiquitin-protein ligase NEDD4 (Homo sapiens, UniProt P46934)
GLP1R: Glucagon-like peptide 1 receptor (GLP1R, Homo sapiens, UniProt P43220)
RPA1 N-terminal domain: Replication protein A 70 kDa DNA-binding subunit, N-terminal domain (RPA1, Homo sapiens, UniProt P27694)

Sequences of proteins named here, by UniProt entry; tags and fusion partners are left off. Residues count along the entry.
UniProt Q14833, 33-912 limits assumed: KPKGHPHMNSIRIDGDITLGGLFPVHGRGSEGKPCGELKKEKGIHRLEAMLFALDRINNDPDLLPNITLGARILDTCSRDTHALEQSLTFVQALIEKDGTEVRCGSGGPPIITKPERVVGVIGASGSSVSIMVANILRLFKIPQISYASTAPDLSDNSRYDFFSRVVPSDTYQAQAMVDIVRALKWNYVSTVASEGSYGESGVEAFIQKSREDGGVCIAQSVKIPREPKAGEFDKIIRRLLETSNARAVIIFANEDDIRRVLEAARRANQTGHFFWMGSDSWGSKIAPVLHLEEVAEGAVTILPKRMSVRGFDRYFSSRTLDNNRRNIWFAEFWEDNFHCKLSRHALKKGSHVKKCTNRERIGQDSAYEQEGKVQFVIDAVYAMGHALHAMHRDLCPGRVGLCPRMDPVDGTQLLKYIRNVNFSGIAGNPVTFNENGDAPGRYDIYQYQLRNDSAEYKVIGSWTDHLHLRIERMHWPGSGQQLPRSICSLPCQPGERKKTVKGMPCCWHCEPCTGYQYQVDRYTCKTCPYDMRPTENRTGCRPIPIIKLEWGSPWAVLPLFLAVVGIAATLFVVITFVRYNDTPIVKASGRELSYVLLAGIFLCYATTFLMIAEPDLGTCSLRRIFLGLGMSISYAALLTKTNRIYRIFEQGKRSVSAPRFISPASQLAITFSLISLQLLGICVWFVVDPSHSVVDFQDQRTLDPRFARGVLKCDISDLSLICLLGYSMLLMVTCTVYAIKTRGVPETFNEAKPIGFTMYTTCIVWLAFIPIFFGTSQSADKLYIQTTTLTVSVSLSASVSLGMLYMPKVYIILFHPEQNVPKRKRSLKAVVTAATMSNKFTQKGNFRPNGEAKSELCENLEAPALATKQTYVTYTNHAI
UniProt P30291, whole entry: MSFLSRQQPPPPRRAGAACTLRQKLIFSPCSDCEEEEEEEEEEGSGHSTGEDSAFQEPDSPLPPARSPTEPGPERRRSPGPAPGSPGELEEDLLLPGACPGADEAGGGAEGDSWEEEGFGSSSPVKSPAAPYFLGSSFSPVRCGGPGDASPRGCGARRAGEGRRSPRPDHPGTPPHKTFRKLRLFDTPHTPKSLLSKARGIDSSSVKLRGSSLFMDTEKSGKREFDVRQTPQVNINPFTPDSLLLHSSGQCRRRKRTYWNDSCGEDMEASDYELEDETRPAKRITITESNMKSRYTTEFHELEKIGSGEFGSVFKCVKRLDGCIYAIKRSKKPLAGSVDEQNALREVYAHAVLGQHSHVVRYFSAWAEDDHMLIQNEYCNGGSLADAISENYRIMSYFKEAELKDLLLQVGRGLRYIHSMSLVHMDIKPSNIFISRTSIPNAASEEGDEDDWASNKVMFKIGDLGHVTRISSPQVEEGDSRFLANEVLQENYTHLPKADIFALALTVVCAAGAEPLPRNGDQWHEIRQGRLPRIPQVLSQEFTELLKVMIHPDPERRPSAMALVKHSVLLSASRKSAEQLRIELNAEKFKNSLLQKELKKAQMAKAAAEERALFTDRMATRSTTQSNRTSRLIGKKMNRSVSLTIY
UniProt Q96SW2, whole entry: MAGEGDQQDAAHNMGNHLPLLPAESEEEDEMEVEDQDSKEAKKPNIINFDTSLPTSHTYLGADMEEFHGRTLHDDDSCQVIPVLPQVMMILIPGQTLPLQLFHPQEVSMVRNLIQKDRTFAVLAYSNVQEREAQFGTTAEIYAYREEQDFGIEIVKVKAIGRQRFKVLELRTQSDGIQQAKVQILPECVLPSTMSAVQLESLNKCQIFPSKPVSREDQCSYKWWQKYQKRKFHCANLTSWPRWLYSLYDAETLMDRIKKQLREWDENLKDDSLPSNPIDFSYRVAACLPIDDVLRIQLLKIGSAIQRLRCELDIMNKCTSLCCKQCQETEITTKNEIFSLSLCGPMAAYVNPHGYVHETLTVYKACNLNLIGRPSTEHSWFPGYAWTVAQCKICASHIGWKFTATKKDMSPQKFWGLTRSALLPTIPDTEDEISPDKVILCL
UniProt P21462, whole entry: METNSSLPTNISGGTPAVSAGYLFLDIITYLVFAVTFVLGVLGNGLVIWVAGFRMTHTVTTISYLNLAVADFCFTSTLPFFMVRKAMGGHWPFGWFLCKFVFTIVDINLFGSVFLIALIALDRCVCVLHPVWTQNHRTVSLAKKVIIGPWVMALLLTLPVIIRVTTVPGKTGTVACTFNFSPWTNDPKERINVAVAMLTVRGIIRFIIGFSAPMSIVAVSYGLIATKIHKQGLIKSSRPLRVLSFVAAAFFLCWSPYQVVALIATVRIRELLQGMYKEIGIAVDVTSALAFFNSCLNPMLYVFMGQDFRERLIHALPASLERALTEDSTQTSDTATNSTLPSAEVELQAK
UniProt Q3UFF7, whole entry: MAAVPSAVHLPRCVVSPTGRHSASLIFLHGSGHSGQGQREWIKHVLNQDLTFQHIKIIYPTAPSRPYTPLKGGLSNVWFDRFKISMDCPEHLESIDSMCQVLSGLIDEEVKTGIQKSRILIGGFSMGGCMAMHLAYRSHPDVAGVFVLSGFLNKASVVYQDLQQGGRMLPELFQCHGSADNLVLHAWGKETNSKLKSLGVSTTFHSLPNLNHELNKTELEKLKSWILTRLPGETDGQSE
UniProt P46934, whole entry, looked up: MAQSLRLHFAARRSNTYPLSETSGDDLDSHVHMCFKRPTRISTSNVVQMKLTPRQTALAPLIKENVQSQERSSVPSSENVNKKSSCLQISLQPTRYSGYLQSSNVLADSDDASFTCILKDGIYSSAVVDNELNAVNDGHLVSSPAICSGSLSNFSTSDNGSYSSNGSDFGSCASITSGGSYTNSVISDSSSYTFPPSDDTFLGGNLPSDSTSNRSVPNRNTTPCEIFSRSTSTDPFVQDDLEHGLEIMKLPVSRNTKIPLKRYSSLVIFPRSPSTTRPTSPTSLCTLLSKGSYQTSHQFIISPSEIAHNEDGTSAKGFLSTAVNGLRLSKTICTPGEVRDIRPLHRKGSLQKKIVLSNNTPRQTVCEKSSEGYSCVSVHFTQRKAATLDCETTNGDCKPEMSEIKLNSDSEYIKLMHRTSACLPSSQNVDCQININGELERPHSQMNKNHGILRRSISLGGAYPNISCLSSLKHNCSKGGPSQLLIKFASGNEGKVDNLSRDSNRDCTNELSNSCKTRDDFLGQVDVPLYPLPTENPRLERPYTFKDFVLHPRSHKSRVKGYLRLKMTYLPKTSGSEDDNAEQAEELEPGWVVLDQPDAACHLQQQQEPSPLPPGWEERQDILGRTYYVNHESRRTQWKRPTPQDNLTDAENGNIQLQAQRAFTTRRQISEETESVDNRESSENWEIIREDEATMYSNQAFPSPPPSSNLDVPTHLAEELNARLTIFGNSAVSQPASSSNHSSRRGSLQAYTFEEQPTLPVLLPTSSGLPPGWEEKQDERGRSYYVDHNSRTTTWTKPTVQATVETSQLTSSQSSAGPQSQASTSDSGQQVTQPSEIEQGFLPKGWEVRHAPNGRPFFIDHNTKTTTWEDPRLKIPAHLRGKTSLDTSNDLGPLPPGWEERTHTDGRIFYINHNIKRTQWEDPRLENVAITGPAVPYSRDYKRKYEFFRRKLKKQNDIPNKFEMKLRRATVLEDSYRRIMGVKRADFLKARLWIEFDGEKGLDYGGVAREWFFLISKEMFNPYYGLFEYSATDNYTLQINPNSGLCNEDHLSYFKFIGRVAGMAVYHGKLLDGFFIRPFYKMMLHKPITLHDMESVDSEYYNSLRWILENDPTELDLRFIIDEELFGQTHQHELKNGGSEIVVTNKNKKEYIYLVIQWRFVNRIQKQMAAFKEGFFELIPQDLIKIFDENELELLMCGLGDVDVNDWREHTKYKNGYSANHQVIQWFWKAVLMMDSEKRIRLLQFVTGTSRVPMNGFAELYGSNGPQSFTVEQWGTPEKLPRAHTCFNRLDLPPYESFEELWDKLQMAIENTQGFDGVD
UniProt P43220, whole entry, looked up: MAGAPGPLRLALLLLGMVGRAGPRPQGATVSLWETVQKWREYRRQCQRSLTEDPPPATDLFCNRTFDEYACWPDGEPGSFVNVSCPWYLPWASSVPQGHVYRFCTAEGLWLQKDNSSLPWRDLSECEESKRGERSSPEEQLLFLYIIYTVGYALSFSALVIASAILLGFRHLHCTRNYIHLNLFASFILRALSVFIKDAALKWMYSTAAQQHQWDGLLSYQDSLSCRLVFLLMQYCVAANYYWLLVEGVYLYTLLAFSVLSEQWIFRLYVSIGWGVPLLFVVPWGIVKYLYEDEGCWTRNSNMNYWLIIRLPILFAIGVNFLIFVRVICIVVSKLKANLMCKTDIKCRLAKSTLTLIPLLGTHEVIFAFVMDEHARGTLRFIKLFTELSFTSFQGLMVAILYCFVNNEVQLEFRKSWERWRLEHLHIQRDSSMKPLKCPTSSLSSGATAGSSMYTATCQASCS
UniProt Q99797, 36-713 limits assumed: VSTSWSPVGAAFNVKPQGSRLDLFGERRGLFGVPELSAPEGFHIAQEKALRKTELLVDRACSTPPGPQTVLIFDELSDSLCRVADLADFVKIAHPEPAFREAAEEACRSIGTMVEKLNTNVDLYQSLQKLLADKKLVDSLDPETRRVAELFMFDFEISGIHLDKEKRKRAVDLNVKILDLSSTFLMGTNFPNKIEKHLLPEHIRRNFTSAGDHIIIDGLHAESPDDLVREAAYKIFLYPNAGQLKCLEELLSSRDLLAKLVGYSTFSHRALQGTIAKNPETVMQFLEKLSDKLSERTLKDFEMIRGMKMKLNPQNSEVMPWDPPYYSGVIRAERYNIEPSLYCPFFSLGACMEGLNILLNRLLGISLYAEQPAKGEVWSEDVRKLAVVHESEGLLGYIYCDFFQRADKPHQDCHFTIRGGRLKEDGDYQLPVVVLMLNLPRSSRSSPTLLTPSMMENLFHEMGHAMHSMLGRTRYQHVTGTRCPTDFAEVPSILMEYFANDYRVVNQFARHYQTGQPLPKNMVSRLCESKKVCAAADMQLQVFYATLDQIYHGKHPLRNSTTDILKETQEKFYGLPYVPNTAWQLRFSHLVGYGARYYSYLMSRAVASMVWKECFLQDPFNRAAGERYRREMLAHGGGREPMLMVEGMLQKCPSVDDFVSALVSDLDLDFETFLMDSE
UniProt P05067, 672-713 limits assumed: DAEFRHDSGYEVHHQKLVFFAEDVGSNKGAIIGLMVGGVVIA
UniProt P45983, 1-384 isoform 3: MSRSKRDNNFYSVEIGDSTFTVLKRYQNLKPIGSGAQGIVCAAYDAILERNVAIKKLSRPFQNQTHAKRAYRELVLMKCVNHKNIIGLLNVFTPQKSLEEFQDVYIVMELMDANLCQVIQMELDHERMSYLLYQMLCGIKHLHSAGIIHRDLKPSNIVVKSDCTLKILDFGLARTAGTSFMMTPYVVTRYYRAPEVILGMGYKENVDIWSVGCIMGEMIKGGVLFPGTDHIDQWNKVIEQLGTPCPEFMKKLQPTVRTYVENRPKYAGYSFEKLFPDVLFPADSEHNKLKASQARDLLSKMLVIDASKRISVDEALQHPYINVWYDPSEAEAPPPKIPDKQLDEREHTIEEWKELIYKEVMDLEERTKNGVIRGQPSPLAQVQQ
UniProt P45983, 1-384 isoform 3 C116S: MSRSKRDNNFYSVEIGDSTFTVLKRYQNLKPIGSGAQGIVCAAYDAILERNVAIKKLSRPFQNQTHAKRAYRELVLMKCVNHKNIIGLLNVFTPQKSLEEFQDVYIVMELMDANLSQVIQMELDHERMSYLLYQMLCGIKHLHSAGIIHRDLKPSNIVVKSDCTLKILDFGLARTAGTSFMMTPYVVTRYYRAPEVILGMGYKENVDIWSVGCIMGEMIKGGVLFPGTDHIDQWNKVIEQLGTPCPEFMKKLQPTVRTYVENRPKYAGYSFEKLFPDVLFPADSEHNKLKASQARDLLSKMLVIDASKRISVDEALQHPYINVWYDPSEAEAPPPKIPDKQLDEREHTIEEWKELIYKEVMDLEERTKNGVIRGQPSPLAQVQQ
UniProt P00491, whole entry: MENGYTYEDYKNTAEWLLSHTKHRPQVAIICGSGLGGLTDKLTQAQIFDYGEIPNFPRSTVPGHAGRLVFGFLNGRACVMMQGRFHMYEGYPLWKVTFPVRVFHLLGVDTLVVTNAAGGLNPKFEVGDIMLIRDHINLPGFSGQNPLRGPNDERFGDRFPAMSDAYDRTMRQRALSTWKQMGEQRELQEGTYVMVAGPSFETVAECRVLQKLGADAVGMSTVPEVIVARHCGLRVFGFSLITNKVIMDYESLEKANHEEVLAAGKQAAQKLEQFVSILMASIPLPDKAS
UniProt P11473, whole entry: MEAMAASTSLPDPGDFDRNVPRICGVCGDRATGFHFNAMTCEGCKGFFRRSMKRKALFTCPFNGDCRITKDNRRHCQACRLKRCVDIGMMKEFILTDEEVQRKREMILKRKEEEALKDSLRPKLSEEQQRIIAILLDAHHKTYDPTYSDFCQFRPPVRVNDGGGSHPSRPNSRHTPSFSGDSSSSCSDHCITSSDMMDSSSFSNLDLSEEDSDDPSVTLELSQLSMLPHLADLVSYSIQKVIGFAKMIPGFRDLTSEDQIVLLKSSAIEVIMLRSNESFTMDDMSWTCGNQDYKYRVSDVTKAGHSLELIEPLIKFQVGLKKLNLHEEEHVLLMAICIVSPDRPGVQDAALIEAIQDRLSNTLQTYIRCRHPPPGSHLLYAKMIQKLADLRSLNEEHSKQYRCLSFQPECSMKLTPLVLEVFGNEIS

| Compound | tested on | assay | test system | setting | scale | endpoint | value |
| --- | --- | --- | --- | --- | --- | --- | --- |
| CC(C)C[C@H](NC(=O)[C@@H]1CCCN1C(=O)[C@H](CCC(N)=O)NC(=O)c1ccccc1N)C(=O)N[C@@H](CCC(N)=O)C(=O)N[C@@H](C)C(=O)N[C@@H](CCCCN)C(=O)N[C@H](C(=O)N[C@@H](CCC(N)=O)C(=O)NCCNc1ccc([N+](=O)[O-])cc1[N+](=O)[O-])C(C)C | Mitochondrial intermediate peptidase (MIPEP, Homo sapiens, UniProt Q99797) | substrate, FRET peptide hydrolysis |  |  |  | kcat/Km | 29000 M⁻¹ s⁻¹ |
| CCN(CC)C(=O)Oc1ccccc1C=C1Cc2cc(OC)c(OC)cc2C1=O | Cocaine esterase (CES2, Homo sapiens, UniProt O00748) | inactivator |  |  |  | KI | 6.43 nM |
| O=C(O)CC[C@H](NC(=O)c1cc(C(=O)O)cc([C@H]2CCN[C@@H]2C(=O)O)c1)C(=O)O | Glutamate receptor ionotropic, kainate 1 (Rattus norvegicus, UniProt P22756) | radioligand binding | Sf9 membranes | 10 µM, homomeric receptor, together with: [3H]SYM2081 |  | specific binding | 91 ± 6% |
| CN1CCN(c2ccc(-c3cccc(CN4CCN(CCNC(=O)CCCCCCCNc5cccc6c5C(=O)N(C5CCC(=O)NC5=O)C6=O)CC4)c3)cc2NC(=O)c2c[nH]c(=O)cc2C(F)(F)F)CC1 (stereo not shown) | WDR5 (Homo sapiens, UniProt P61964) | degrader, immunoblot, measured: WDR5 protein level | MV4;11 | 0.5 µM, 12 h treatment then washout |  | recovery time after washout | 36 h |
| COc1ccc(NC(=O)CN2CCCN(S(=O)(=O)c3cnc(NC(C)=O)s3)CC2)c(OC)c1 | GRM4 | calcium mobilization, positive allosteric modulator | CHO cells with Gqi5 | together with: glutamate | relative to: PHCCC maximal response | maximal response | 46.4 ± 5.5% |
| CC(=O)Nc1ncc(CN2CC[C@H](Oc3cccc(F)n3)C[C@@H]2C)s1 [isotope labelled] | Protein O-GlcNAcase (OGA, Homo sapiens, UniProt O60502) | saturation binding | human hippocampus homogenate | radiolabelled compound |  | Bmax | 9.8 ± 0.8 nM |
| COC(=O)CCCC(C(=O)/C=C/c1ccc(O)c(OC(F)(F)F)c1)C(=O)/C=C/c1ccc(O)c(OC(F)(F)F)c1 | APP (Homo sapiens, UniProt P05067) | SDS-PAGE western blot, measured: Aβ1-42 species 75-200 kDa |  | 30 µM, 24 h, 37 °C, together with: Aβ 10 µM | relative to: DMSO control | Aβ band density | 805 ± 253% |
| O=C(Nc1ccc(F)cc1)C12CC1/C(=N\O)c1ccccc1O2 (stereo not shown) | GRM4 | positive allosteric modulator, calcium mobilization | CHO expressing Gqi5 | 30 µM, together with: glutamate concentration-response | relative to: glutamate alone, leftward shift | fold shift of glutamate EC50 | 4.1 ± 0.5 fold |
| Cc1cc(NC(=O)c2cccc(NC(=O)C3=CC(C)(C)CC3=O)c2)ccc1Nc1nccc(-c2cccnc2)n1 | MAPK8 (Homo sapiens, UniProt P45983, C116S) | surface plasmon resonance |  | 100, 300, 1000 nM, 1:1 binding model |  | kon | 130000 M⁻¹ s⁻¹ |
| CC(C)(C)CC(C)(C)Nc1c(-c2ccc3c(c2)C(=O)N(C2CCC(=O)NC2=O)C3=O)nc2ccccn12 (stereo not shown) | WEE1/CRBN | degrader, HiBiT | Jurkat | 5 h |  | Dmax | > 98% |
| COc1ccc(OC)c(C2C(C(=O)c3ccc(C)cc3)=C(O)C(=O)N2CC(C)C)c1 (stereo not shown) | FPR1 | fMLF-induced calcium mobilization, antagonist | HL-60 expressing FPR1 | concentration not given, inactive if none at 50 µM |  | antagonist activity | active |
| Nc1nc(SCc2ccc(Cl)cc2)nn1S(=O)(=O)c1cccc2c1CCCC2 | Lysophospholipase-like protein 1 | activator, gel-based ABPP, FP-rhodamine | HEK293 overexpressing Lysophospholipase-like protein 1 | 10 µM |  | activation | 44% |
| c1ccc2c(CCNCCSSCCNCCc3c[nH]c4ccccc34)c[nH]c2c1 | G6PD (Homo sapiens, UniProt P11413, R459L) | activator |  | concentration not given, Canton mutant |  | activity increase | 60% |
| COC(=O)[C@@H]1C(c2nc3ccccc3o2)=Cc2cc3c(cc2[C@H]1c1cc(OC)c(OC)c(OC)c1)OCO3 | Leishmania infantum | iRFP fluorescence | mouse splenocytes infected, amastigote, iRFP, ex vivo splenic explant | 48 h |  | EC50 | 4500 ± 100 nM |
| Cc1nc(-c2ccc(OCC(C)C)c(C#N)c2)sc1C(N)=O | Grm2/Grm4 (Rattus norvegicus, UniProt P31421+P31423) | thallium flux, positive allosteric modulator | HEK293 GIRK | together with: glutamate EC20 | relative to: glutamate max | efficacy | 61 ± 6.6% |
| COc1ccc(NC(=O)CN2CCCN(S(=O)(=O)CC(C)C)CC2)c(OC)c1 | GRM4 | calcium mobilization, positive allosteric modulator | CHO cells with Gqi5 | together with: glutamate | relative to: PHCCC maximal response | maximal response | 21.3 ± 0.9% |
| CCOC(=O)/C=C/CNCCCCN1c2ccccc2CCc2ccc(Cl)cc21 | E3 ubiquitin-protein ligase NEDD4 | inhibitor, Ub-TR-FRET |  | 0.4115 µM, 1 h preincubation, HECT domain, together with: ATP 2 mM | higher = more ubiquitination | ubiquitination TR-FRET signal AUC | 102000 a.u. and 105000 a.u. and 63000 a.u. and 67300 a.u. and 106000 a.u. and 61200 a.u. |
| C[C@H]1N[C@@H](c2c[nH]c3c(=O)[nH]cnc23)[C@H](O)[C@@H]1O | PNP (Homo sapiens, UniProt P00491) | isothermal titration calorimetry |  | concentration not given, pH 7.4, 27 °C, first subunit, together with: phosphate 50 mM |  | binding enthalpy ΔH | -8.5 ± 0.2 kcal/mol |
| Cc1cc(-n2cc(C(N)=O)c(=O)c3cc(CCc4cnc(C)nc4)ccc32)sn1 | Grm2 (Rattus norvegicus, UniProt P31421) | calcium mobilization, negative allosteric modulator |  | 30 µM, together with: glutamate 100 µM | relative to: glutamate maximum | response | 1.2 ± 0.5% |

| Compound | tested on | assay | test system | setting | scale | endpoint | value |
| --- | --- | --- | --- | --- | --- | --- | --- |
| CCC(C)(N)c1cn(CC(C)(C)c2c[nH]c3ccccc23)nn1 (stereo not shown) | GLP1R | cAMP accumulation, positive allosteric modulator, HTRF |  | 0.6 µM, purified compound, together with: GLP-1(9-36) at EC20 | relative to: BETP | Emax | 104 ± 1% |
| NCC(c1ccc(O)cc1)c1ccc(Oc2ccccc2)cc1 (stereo not shown) | Trace amine-associated receptor 1 (Rattus norvegicus, UniProt Q923Y9, M268T) | cAMP production, agonist |  | mutant | relative to: wild type | efficacy decrease | ≤ 12% |
| CCCCN(CCc1ccc(Cl)c(Cl)c1)C[C@H](O)COc1ccc(NS(C)(=O)=O)cc1 | Glutamate NMDA receptor; Grin1/Grin2b (Grin1/Grin2b, Rattus norvegicus, UniProt P35439+Q00960) | whole-cell voltage clamp | HEK cells |  | relative to: pH 6.9 over pH 7.6 | potency ratio | 9 fold |
| CC(=O)N[C@@H](CCC(N)=O)C(=O)N[C@H](C(=O)N[C@@H](C)C(=O)N[C@@H](CCCNC(=N)N)C(=O)N[C@@H](CCCCNC(=O)CCc1ccc(N=Nc2ccc(N(C)C)cc2)cc1)C(=O)N[C@@H](CO)C(=O)N[C@H](C(=O)NCC(=O)NCC(=O)NCCCNC(=S)Nc1ccc2c(c1)C(=O)OC21c2ccc(O)cc2Oc2cc(O)ccc21)[C@@H](C)O)[C@@H](C)O | SIRT3 (Homo sapiens, UniProt Q9NTG7) | substrate, fluorescence kinetics |  | 37 °C, 60 nM enzyme, together with: 500 µM NAD+ |  | kcat | 0.0019 ± 2.7e-05 s⁻¹ |
| O=C1CCC(N2Cc3cc(-c4nc5ccccn5c4Nc4ccc5c(c4)OCCO5)ccc3C2=O)C(=O)N1 (stereo not shown) | WEE1/CRBN | degrader, HiBiT | Jurkat | 5 h |  | Dmax | 63% |
| Cc1cc(SCc2sc(-c3cccc(C(=O)NCCCN(C)C)c3)nc2C)ccc1OCC(=O)O | Vitamin D3 receptor (VDR, Homo sapiens, UniProt P11473) | reporter gene, antagonist | HEK-293T | up to 100 µM, CYP24A1 promoter luciferase, together with: 1,25(OH)2D3 10 nM |  | IC50 | inactive |
| Nc1ncnc2c1c(-c1ccc(C(=O)Nc3cc(OC(F)(F)F)ccn3)cc1)nn2[C@@H]1CCCN(C(=O)C2CC2)C1 | Tyrosine-protein kinase BTK, non-phosphorylated (BTK, Homo sapiens, UniProt Q06187) | TR-FRET binding kinetics |  | 37 °C, unphosphorylated enzyme |  | residence time | 39 ± 4 min |
| CCOC(=O)/C=C/CNCCCN1c2ccccc2CCc2ccccc21 | E3 ubiquitin-protein ligase NEDD4 | inhibitor, Ub-TR-FRET |  | 100 µM, 1 h preincubation, HECT domain, together with: ATP 2 mM | higher = more ubiquitination | ubiquitination TR-FRET signal AUC | 34900 a.u. and 29800 a.u. and 30000 a.u. |
| Nc1nc(NCCc2ccc(Cl)cc2)nn1S(=O)(=O)c1cccc2ccccc12 | Lysophospholipase-like protein 1 | activator, gel-based ABPP FP-rhodamine |  |  | relative to: DMSO | probe labelling | 1.6 fold |
| CCn1c(-c2cc(NC(=O)c3cnccn3)n[nH]2)cc2ccccc21 | CSNK2A1 (Homo sapiens, UniProt P68400) | enzyme activity, inhibitor |  |  |  | maximal inhibition | 30% |
| COC(=O)[C@@]1(C)C=C(C(=O)Nc2cccc(C(=O)NC34CC(Nc5nccc(-c6cccnc6)n5)(C3)C4)c2)C(=O)CC1 | MAPK8 (Homo sapiens, UniProt P45983) | kinase activity, inhibitor |  | 0.5487 µM, unit not given, together with: 10 mM GSH | relative to: DMSO | remaining activity | 0.0941 |
| COc1ccc2nc(SCC(=O)Nc3ccc(S(N)(=O)=O)cc3)[nH]c2c1 | FPR1 | calcium mobilization, agonist | transfected HL-60 cells | concentration not given |  | activity class | active |
| Cc1ccc(C(=O)Nc2ccccc2C(=O)O)cc1S(=O)(=O)NCC1CCCCC1 | RPA1 N-terminal domain | binding, fluorescence polarisation competition |  | together with: FITC-ATRIP probe |  | ligand efficiency | 0.19 |
| CCOC(=O)/C=C/CNCCCCCN1c2ccccc2CCc2ccc(Cl)cc21 | E3 ubiquitin-protein ligase NEDD4 | inhibitor, Ub-TR-FRET |  | 100 µM, 1 h preincubation, HECT domain, together with: ATP 2 mM | higher = more ubiquitination | ubiquitination TR-FRET signal AUC | 16100 a.u. and 16000 a.u. and 15800 a.u. |
| Cc1ccc(C(=O)Nc2ccccc2C(=O)O)cc1S(=O)(=O)NC1CCCCCC1 | RPA1 N-terminal domain | binding, fluorescence polarisation competition |  | together with: FITC-ATRIP probe |  | ligand efficiency | 0.19 |
| CC(C)(Cn1cc(-c2ccc(S(C)(=O)=O)cc2)nn1)c1c[nH]c2ccccc12 | GLP1R | cAMP accumulation, positive allosteric modulator, HTRF |  | 0.6 µM, purified compound, together with: GLP-1(9-36) at EC20 | relative to: BETP | Emax | 112 ± 6% |
| CCOC(=O)/C=C/CNCCCN1c2ccccc2CCc2ccc([N+](=O)[O-])cc21 | E3 ubiquitin-protein ligase NEDD4 | inhibitor, Ub-TR-FRET |  | 100 µM, 1 h preincubation, HECT domain, together with: ATP 2 mM | higher = more ubiquitination | ubiquitination TR-FRET signal AUC | 28100 a.u. and 24100 a.u. and 23100 a.u. |
| CCCCNCC1=Cc2cc3c(cc2[C@@H](c2cc(OC)c(OC)c(OC)c2)[C@@H]1C(=O)OC)OCO3 | Leishmania infantum | Alamar Blue | HepG2 |  | relative to: CC50 HepG2 over EC50 amastigotes | selectivity index | 0.2 |

For quick reference, copied from above:
| Compound | tested on | assay | test system | setting | scale | endpoint | value |
| --- | --- | --- | --- | --- | --- | --- | --- |
| CC(C)(Cn1cc(-c2ccc(S(C)(=O)=O)cc2)nn1)c1c[nH]c2ccccc12 | GLP1R | cAMP accumulation, positive allosteric modulator, HTRF |  | 0.6 µM, purified compound, together with: GLP-1(9-36) at EC20 | relative to: BETP | Emax | 112 ± 6% |
| CC(=O)N[C@@H](CCC(N)=O)C(=O)N[C@H](C(=O)N[C@@H](C)C(=O)N[C@@H](CCCNC(=N)N)C(=O)N[C@@H](CCCCNC(=O)CCc1ccc(N=Nc2ccc(N(C)C)cc2)cc1)C(=O)N[C@@H](CO)C(=O)N[C@H](C(=O)NCC(=O)NCC(=O)NCCCNC(=S)Nc1ccc2c(c1)C(=O)OC21c2ccc(O)cc2Oc2cc(O)ccc21)[C@@H](C)O)[C@@H](C)O | SIRT3 (Homo sapiens, UniProt Q9NTG7) | substrate, fluorescence kinetics |  | 37 °C, 60 nM enzyme, together with: 500 µM NAD+ |  | kcat | 0.0019 ± 2.7e-05 s⁻¹ |
| COC(=O)CCCC(C(=O)/C=C/c1ccc(O)c(OC(F)(F)F)c1)C(=O)/C=C/c1ccc(O)c(OC(F)(F)F)c1 | APP (Homo sapiens, UniProt P05067) | SDS-PAGE western blot, measured: Aβ1-42 species 75-200 kDa |  | 30 µM, 24 h, 37 °C, together with: Aβ 10 µM | relative to: DMSO control | Aβ band density | 805 ± 253% |
| COc1ccc(NC(=O)CN2CCCN(S(=O)(=O)c3cnc(NC(C)=O)s3)CC2)c(OC)c1 | GRM4 | calcium mobilization, positive allosteric modulator | CHO cells with Gqi5 | together with: glutamate | relative to: PHCCC maximal response | maximal response | 46.4 ± 5.5% |
